Experimental data pooled from the literature.
Numbered parts are unrelated; each lists some results of a single study.

Set 1
Target: Histone acetyltransferase KAT6A, winged helix 2, GST fusion (KAT6A, Homo sapiens, UniProt Q92794, residues 85-181)
Method: protein binding microarray
Molecule type: double-stranded DNA, one strand shown
Medium: in vitro
Concentration: not given
Setting: 8-mer, flanks averaged, mean of 2 arrays, mostly near background
Reference: not given
Reading: higher = stronger binding
Measurement: E-score
Construct (chain): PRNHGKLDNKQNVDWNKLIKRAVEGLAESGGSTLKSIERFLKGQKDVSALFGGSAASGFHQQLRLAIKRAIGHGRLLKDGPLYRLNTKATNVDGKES
CGTCCGAC: -0.0112
GGCTTCCA: -0.00918
CCTTCAGA: -0.178
ACTCCGTC: 0.104
ATGGTCTG: -0.0112
GCCAAAAA: 0.194
ACCGCGGG: 0.206
CTCGTCTC: -0.0222
AATGACCC: -0.25
ATTAATAA: 0.0844
ATCATATC: 0.156
GTAGCAGA: 0.109
GTGTATTA: 0.00881
GGATATGA: 0.00348
AATAAAGG: -0.0913
ACCTACGT: -0.195
AGAGTATA: -0.0849
CTCCAGCA: 0.0924
ATTAGAAC: 0.0663
GCGCTAAA: 0.0382
AGAGATAG: 0.0822
GATGCCGA: 0.0979
GCACGGCA: 0.0985
AAACGTCT: -0.0672
CCAGGACG: 0.157

Set 2
Target: Sal-like protein 4, full length isoform B (SALL4, Homo sapiens, UniProt Q9UJQ4-2, residues 1-616)
Method: universal PBM
Molecule type: double-stranded DNA, one strand shown
Medium: in vitro
Concentration: not given
Setting: 8-mer, flanks averaged, mean of replicates
Reading: higher = stronger binding
Measurement: E-score
Residues (chain): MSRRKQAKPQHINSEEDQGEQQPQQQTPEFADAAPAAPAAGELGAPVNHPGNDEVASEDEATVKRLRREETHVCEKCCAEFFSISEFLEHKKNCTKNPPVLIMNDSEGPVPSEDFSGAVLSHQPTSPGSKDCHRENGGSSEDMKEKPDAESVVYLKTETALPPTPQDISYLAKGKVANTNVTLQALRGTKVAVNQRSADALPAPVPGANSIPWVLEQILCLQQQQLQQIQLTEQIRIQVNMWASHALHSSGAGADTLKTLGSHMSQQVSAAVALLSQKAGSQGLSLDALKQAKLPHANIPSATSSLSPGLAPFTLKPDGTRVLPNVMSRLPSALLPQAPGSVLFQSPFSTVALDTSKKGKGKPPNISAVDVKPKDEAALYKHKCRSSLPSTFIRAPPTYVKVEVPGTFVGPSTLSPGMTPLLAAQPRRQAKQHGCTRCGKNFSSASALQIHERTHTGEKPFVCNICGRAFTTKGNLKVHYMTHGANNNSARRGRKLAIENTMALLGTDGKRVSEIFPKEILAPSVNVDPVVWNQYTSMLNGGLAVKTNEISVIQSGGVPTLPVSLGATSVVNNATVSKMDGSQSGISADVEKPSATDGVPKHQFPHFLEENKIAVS
CTCGCTTC: -0.142
CCGATTTA: 0.119
ACTCACCA: 0.0239
AATCTAAG: 0.131
CACTGCTA: 0.012
CCCTGCGG: -0.307
GCCTTGAA: -0.106
AACTTCAA: 0.135
GACGGTTA: -0.0346
TCAAAAGA: 0.0892
AAAACTAT: 0.245
CCCGAGGA: -0.219
GTAATAGA: 0.187
AGTCGCGA: -0.118
GTCCCCTA: -0.181
CATTGCTA: 0.176
AACTTACG: 0.111
CCCAGACC: -0.26
GGCTTAGA: -0.112
TACTGCTA: -0.00496
CTTATCCC: 0.0712
CGCCCGAC: -0.219
CGAGGAAG: -0.175
AACGTAGT: 0.153
GACCAACA: 0.0737

Set 3
Target: RNA binding protein fox-1 homolog 2, RRM domain, GST-SBP tag (RBFOX2, Homo sapiens, UniProt O43251-10, residues 100-194)
Method: RNA Bind-n-Seq
Molecule type: RNA
Medium: in vitro
Concentration: 365 nM
Setting: natural RNA segment, single round, ends assumed
Reference: no-protein control
Reading: higher = stronger binding
Measurement: RBNS enrichment (R)
Construct (chain): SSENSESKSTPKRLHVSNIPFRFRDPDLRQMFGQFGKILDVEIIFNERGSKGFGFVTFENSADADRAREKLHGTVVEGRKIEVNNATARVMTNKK
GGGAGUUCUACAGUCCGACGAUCGGGUCAGAGGGAGGCCGGCUGCUUCCUGCCCCCACCCUUUCCCCGGGCCUGCUGUGCUGCUUUUGUGCCAAGGUUAGCCAGUCCCCCCUGUUGUGUUCCAUGUGCUUUCAUGGAAUUCUCGGGUGCCAA: 0.319
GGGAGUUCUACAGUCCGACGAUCAGUUCUUUGGUUCUUUGCUGUUUCUAUUAACCCAUAGCAUUAUUUUAAUAAAUGUUAUAAUACCAACCUACUAACUCUGGACUAUGUUUGUUUAUUAACCUUUCCGUGUUUGGAAUUCUCGGGUGCCAA: 0.637
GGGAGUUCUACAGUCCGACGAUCUAAACUCAUGAAUUAUAGGCAUUUUUAAUUUUUUGUAGACUAUGAACCCUGGCUGAUAUUGAAGUCAUCAUUGUUGGAUGGUUUAUUCUGUUUUGUUGUUAAUGCUCAGAUGGAAUUCUCGGGUGCCAA: 1.21
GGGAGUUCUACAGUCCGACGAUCACAUACUGACCAGACGUCAGUCUGUGAUGUUUCCGCUGCAAGAAUUCAAGCAUGCUGUUAGGAAUGUAAUUUCAAUGGGAAGUAAACCACUAUUAGGUUUUUUUUCUUUUUGGAAUUCUCGGGUGCCAA: 14.5
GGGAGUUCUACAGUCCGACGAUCCACACAGGGCUCUUUGAUGGACCCACGAACGCUCUUAGCUUUCUCAGGGGGUCAGCAGAGUUAUUGAAUCUUAAUUUUUUUUAAUGUACAAGUUUUGUAUAAAUAAUAAAUGGAAUUCUCGGGUGCCAA: 0.545
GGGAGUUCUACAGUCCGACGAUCGAGUAUUAUUUUACAUAACCCGUCCUAGAGUAACAUUUUAGGCAACAUUCUUCAUUGCAAGUAAAAGAUCCAUAAGUGGCAUUUUACACGGCUGCGAGUAUUGUUAUAUCUGGAAUUCUCGGGUGCCAA: 0.375
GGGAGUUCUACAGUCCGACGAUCUUUUGAGGGGCUCAGAAAAUAGGAUUCAGUGUGUAACAUAACAGGUAGGUUGUCAGCAUGCUUGGCAUUCUUCUGUUUUCCUUACCGUUUUACAGACUAUGAAGCUGAGGUGGAAUUCUCGGGUGCCAA: 8.36
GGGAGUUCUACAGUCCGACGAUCAGCAGCCUCUUUUUAAAGUGUGAUGUUUUGCCUUUCCACCUAAAGACCAGGAGAGAAUUUGGGCCCUUACUGACCUGUCCUCCUUCAGGGACAUGAGCAUUCCCUAUAGAUGGAAUUCUCGGGUGCCAA: 0.402

Set 4
Target: Ras GTPase-activating protein-binding protein 1, full length (G3BP1, Homo sapiens, UniProt Q13283)
Chain of UniProt Q13283 (whole entry, looked up): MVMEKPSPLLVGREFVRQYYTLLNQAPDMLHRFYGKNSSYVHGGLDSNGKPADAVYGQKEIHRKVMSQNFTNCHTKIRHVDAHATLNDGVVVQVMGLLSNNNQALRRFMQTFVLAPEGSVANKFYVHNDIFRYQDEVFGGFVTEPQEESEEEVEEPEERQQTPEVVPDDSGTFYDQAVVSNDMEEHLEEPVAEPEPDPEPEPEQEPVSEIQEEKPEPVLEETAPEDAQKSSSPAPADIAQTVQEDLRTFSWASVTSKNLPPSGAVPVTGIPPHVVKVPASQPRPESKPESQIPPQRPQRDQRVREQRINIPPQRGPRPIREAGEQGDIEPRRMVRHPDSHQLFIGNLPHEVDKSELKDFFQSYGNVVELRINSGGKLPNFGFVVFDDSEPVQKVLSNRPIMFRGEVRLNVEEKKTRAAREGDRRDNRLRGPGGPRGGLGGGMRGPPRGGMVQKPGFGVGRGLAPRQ
Method: RNA Bind-n-Seq
Molecule type: RNA
Medium: in vitro
Concentration: 200 nM
Setting: whole 134-nt RNA, ends assumed
With: 150 mM LiCl
Reference: input library
Reading: higher = stronger binding
Measurement: log2 enrichment
All molecules: 7-deaza-guanosine replaces G
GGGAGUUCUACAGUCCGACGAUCUGGGAGGCGGAUUUUGUUUAUUUUUUUAGCUCAUUUCCAGGGGUGGGAAUUUUUUUUUAAUAUGUGUCAUGAAUAAAGUUGUUUUUGAAAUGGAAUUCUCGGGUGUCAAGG: 0.556
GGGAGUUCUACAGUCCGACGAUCUGUGCUACACAUCGUAUGUACCGAAUCGGGGAAAAAGGGGAAAAAAAGGGGUUUUUUUGGGGAAAGUAUUAUGUUACGCCGUUCGGAUCUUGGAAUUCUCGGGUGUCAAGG: 0.355
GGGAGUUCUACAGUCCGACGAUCCUGUGCUACACAUCGUAUGUACCGAAUCGGGGCCCCCCCGGCCCCCCCGGGGCCCCCCCGGGAAAGUAUUAUGUUACGCCGUUCGGAUCUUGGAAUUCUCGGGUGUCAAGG: 1.28
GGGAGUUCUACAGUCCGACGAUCAGUCCUGUGCUACACAUCGUAUGUACCGAAUCGGGGUUUUUGGGGUGGGGUUUGGGGAAAGUAUUAUGUUACGCCGUUCGGAUCUGCACUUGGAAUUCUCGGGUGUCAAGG: -0.438
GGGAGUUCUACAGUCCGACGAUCUCCUGUGCUACACAUCGUAUGUACCGAAUCGGCCCCCCCGGCCCCCCCGGCCCCCCCGGAAAGUAUUAUGUUACGCCGUUCGGAUCUGCAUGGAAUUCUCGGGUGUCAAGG: 0.394
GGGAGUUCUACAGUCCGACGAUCCACAGACAACACGCACCCACACAGACACAGAGGGAAGGGGCUGGGAUGGGGACAGGGUGCACAGCAGGGCGGGGUAGGACCCCAGCCCCUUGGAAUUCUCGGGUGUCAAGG: 0.145
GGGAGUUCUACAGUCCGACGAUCAGUCCUGUGCUACACAUCGUAUGUACCGAAUCGGGAGGGAAAAAGGGUUUUUUUGGGAAAGUAUUAUGUUACGCCGUUCGGAUCUGCACUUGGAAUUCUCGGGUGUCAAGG: -1.13
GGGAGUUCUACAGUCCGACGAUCGUCCUGUGCUACACAUCGUAUGUACCGAAUCAAAUUUUUUUAAAUUUUUAAAUUUAAAAAAGUAUUAUGUUACGCCGUUCGGAUCUGCACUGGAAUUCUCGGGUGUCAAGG: -2.88

Some of these lines once more (set 2):
AACTTCAA: 0.135
GACCAACA: 0.0737
CCCTGCGG: -0.307
GTCCCCTA: -0.181
GACGGTTA: -0.0346
CGCCCGAC: -0.219
CGAGGAAG: -0.175
AGTCGCGA: -0.118
GTAATAGA: 0.187
CCGATTTA: 0.119
